# Published values gathered from unrelated publications.
# ± marks the error that the study gave.
# Organism: Plasmodium falciparum
SMILES,assay,test system,setting,IC50 [µM]
C=C(C)[C@@H]1CC[C@]2(COC(C)=O)CC[C@]3(C)[C@H](CC[C@@H]4[C@@]5(C)CC[C@H](OC(C)=O)C(C)(C)[C@@H]5CC[C@]43C)[C@@H]12,parasite growth,Dd2 drug-resistant,72 h,> 10
CN1CCN(c2ccc(Nc3ccnc4cc(Cl)ccc34)cc2)CC1,"parasite growth, SYBR Green",DD2,"72 h, drug-resistant strain, blood stage",0.023
[H]/N=C(\N/C(=N/[H])Nc1ccc(Cl)cc1)NC(C)C,oxygen consumption,K1,,> 10
Clc1ccc2c(Nc3ccc(C4COCCN4Cc4ccccc4)cc3)ccnc2c1 (stereo not drawn),"parasite growth, SYBR Green",D6,"72 h, blood stage",≥ 0.25
COc1cc(/C=C/C(C)=O)ccc1OCc1cn(-c2ccnc3cc(Cl)ccc23)nn1,parasite growth,DD2,"drug-resistant strain, blood stage",0.7
FC(F)(F)c1ccc(N2CCN(c3ccc(Nc4ccnc5cc(Cl)ccc45)cc3)CC2)cc1,"parasite growth, SYBR Green",D6,"72 h, blood stage",0.054
C=CCN(CC(O)CO)c1ccccc1 (stereo not drawn),"parasite growth, parasite lactate dehydrogenase",NF54 (chloroquine-sensitive),,> 482
CCN(CC)CCCC(C)Nc1ccnc2cc(Cl)ccc12 (stereo not drawn),"parasite growth, flow cytometry",3D7,"48 h, blood stage",0.00505
O=C(CCCCCONC(=O)c1ccc(F)cc1)NO,parasite growth,"HN12, NF54","72 h, gametocyte",2 to 5.3
Brc1ccc(Nc2nc(NCc3ccccc3)c3ccccc3n2)cc1,parasite growth,3D7,"72 h, asynchronous culture",0.682 ± 0.213
O=CC[C@@H](O)[C@H](O)[C@H](O)CO,parasite growth,3D7,"48 h, blood stage",4190
CCOC(=O)C1=C(C)NC2=C(C(=O)CC(c3ccc(OC)c(OC)c3)C2)C1c1ccccc1Cl (stereo not drawn),male gamete formation,stage V gametocytes,"24 h, compound carried over",0.0677
CNC(=O)C1Cc2c([nH]c3ccccc23)C(c2ccc(Br)cc2Cl)N1 (stereo not drawn),parasite growth,Dd2,,0.3 ± 0.04
CC(C)CN1CCC(c2ccc(Nc3ccnc4cc(Cl)ccc34)cc2)CC1,"parasite growth, SYBR Green",DD2,"72 h, drug-resistant strain, blood stage",0.01
COc1ccc(C2CC(=O)C3=C(C2)NC(C)=C(C(=O)OC(C)C)C3c2ccccc2C)cc1OC (stereo not drawn),"female gamete formation, item: Pfs25",stage V gametocytes,"24 h, compound carried over",> 20
Clc1ccc2c(Nc3ccc(C4CCNCC4)cc3)ccnc2c1,"parasite growth, SYBR Green",D6,"72 h, blood stage",0.009
O=C(O)C1Cc2c([nH]c3ccccc23)C(c2ccc(F)c(F)c2F)N1 (stereo not drawn),parasite growth,Dd2,,~20
COC(=O)C(CC(=O)c1ccc2ccccc2c1)OC (stereo not drawn),"parasite growth, parasite lactate dehydrogenase",NF54 (chloroquine-sensitive),,42
C[C@H]1[C@@H](OCC(=O)CO)O[C@@H]2O[C@@]3(C)CC[C@H]4[C@H](C)CC[C@@H]1[C@@]24OO3,parasite growth,W2,"72 h, drug-resistant strain, blood stage",< 0.01
Clc1ccc2c(Nc3ccc(C4CN(Cc5ccccc5)CCO4)cc3)ccnc2c1 (stereo not drawn),"parasite growth, SYBR Green",D6,"72 h, blood stage",0.101
COC1=CC(c2ccc[nH]2)=N/C1=C\c1[nH]c(Cc2cccc(F)c2)cc1Cc1cccc(F)c1,parasite growth,D6,72 h,< 0.0083

# Some of these lines once more:
SMILES,assay,test system,setting,IC50 [µM]
O=C(CCCCCONC(=O)c1ccc(F)cc1)NO,parasite growth,"HN12, NF54","72 h, gametocyte",2 to 5.3
Brc1ccc(Nc2nc(NCc3ccccc3)c3ccccc3n2)cc1,parasite growth,3D7,"72 h, asynchronous culture",0.682 ± 0.213
